Experimental data collected from several papers.
Lines come from different studies, so protocols differ. Values joined by “and” are separate records of one study, mostly repeats; a detail may differ. Numbers after ± are the reported error.

| SMILES | assay | test system | setting | how to read | quantity | value |
| --- | --- | --- | --- | --- | --- | --- |
| CCc1cnc(NC(=O)c2cc(S(=O)(=O)N3CCOCC3)ccc2N(C)C2CCCC2)s1 | – | mouse | intraperitoneal, three doses every other day, 24 h after last dose | reference: vehicle | blood counts, chemistry, organ cytopathology | no effect |
| CC(=O)OC[C@H]1OC(OC(C)=O)[C@@H](NC(=O)CN=[N+]=[N-])[C@@H](OC(C)=O)[C@@H]1OC(C)=O (some centres unmarked) | refers to: RBC and WBC | C57BL/6 mouse | dose not given | reference: PBS | blood cell counts | no effect |
| Cc1cc(Nc2ccc(S(F)(F)(F)(F)F)cc2)n2nc(C(C)(F)F)nc2n1 | – | CD-1 mouse, female, whole blood | oral, 300 mg/kg daily, 8 h after dose 1, spray-dried dispersion | – | blood concentration | 318 ± 144 µM |
| O=C(O)CCCOc1ccc([18F])cc1-c1cc(-c2ccccc2C(F)(F)F)n(-c2ccccc2)n1 | 18F biodistribution | male ddY mouse, whole blood | intravenous, 2.1 MBq, 5 min | – | blood radioactivity | 0.29 ± 0.08 SUV |
| CN[C@H](CC(C)C)C(=O)N[C@H]1C(=O)N[C@@H](CC(N)=O)C(=O)N[C@H]2C(=O)N[C@H]3C(=O)N[C@H](C(=O)N[C@H](C(=O)O)c4cc(O)cc(O)c4-c4cc3ccc4O)[C@H](O)c3ccc(c(Cl)c3)Oc3cc2cc(c3O[C@@H]2O[C@H](CO)[C@@H](O)[C@H](O)[C@H]2O[C@H]2C[C@](C)(N)[C@H](O)[C@H](C)O2)Oc2ccc(cc2Cl)[C@H]1O | – | C57BL/6 mouse | ip, 20 mg/kg, 7 days | reference: control | blood urea nitrogen | increased |
| CCCCCNC(=O)N1CCC(CN(Cc2ccc(Cl)cc2)Cc2ccc([N+](=O)[O-])s2)C1 (centres unmarked) | refers to: NE% | C57BL/6 mouse, blood | 100 mg/kg twice daily, 7 days | – | blood cell fraction | 18 ± 3.6% |
| COC1=C(OC)[C@H](O)[C@H](C/C=C(\C)CC/C=C(\C)CCC=C(C)C)[C@@H](C)C1=O | – | mouse, BALB/c, male, whole blood | oral, 50 mg/kg, 1 h | – | blood concentration | 0.0418 µM and 0.0309 µM |
| CC1(C)c2nc(-c3ccc(F)cc3)c(Nc3ccc(F)cc3)n2CCN1C(=O)CN | – | mouse | – | reference: blood over plasma | blood to plasma ratio | 1.56 |

Repeated from above:
| SMILES | assay | test system | setting | how to read | quantity | value |
| --- | --- | --- | --- | --- | --- | --- |
| O=C(O)CCCOc1ccc([18F])cc1-c1cc(-c2ccccc2C(F)(F)F)n(-c2ccccc2)n1 | 18F biodistribution | male ddY mouse, whole blood | intravenous, 2.1 MBq, 5 min | – | blood radioactivity | 0.29 ± 0.08 SUV |
